Measurements pooled from the literature.
Values joined by “and” are separate records of one study, mostly repeats; a detail may differ. ± marks the error that the study gave.

SMILES	cell line	test	conditions	scale	quantity	value
Cc1cc(-c2ccccc2)n(-c2nc(-c3ccc(Cl)cc3)c3c(NC(=O)c4ccccc4)nnc-3[nH]2)n1	NCI60 cell panel	SRB	10 µM		mean growth percent	94%
CCc1c(-c2ccccc2)c(-c2ccccc2)nn1-c1ccccc1-c1cccc(OCC(=O)O)c1	mouse bone marrow macrophages	TRAP staining	10 µM, 4 days, added: M-CSF, RANKL, FABP4 25 ng/mL		osteoclast number	70 and 112 and 101 and 88
CN(C(=O)C(Cl)Cl)c1ccc(OC(=O)c2ccco2)cc1	human iPSC-derived cardiomyocytes	MyBP-C/MYH ratio, plate-normalised SD score	concentration not given, primary screen	direction not given	activity score	3.6
C[C@H]1[C@@H](O)O[C@@H]2O[C@@]3(C)CC[C@H]4[C@H](C)CC[C@@H]1[C@@]24OO3	K562	annexin V/PI flow cytometry, item: annexin V-/PI+	3.2 µM, 24 h		necrotic cells	0.2%
C/C=C/c1ccc(OCC(=O)OCC(=O)NC2CC2)c(OC)c1	C127 LDR GFP reporter cells	silenced GFP reporter induction, activator, high-content imaging	independent samples, two-run mean		maximum efficacy	63%
CC(Nc1nc(N2CCCC2)nc2ccccc12)c1ccccc1 (stereo not shown)	HeLa Kyoto reporter	importin β1-dependent cMyc import	up to 50 µM		nuclear import	no effect
CC(C)(c1ccc(O)cc1)c1ccc(O)cc1	HepG2 spheroids	Hoechst flow cytometry	10 µM, 24 h		G2 phase cells	19.1 ± 4.2%
COc1cnc2cccc(N3CCc4c(cc(Cn5ccnc5C)cc4-c4cn(C)nc4C(F)(F)F)C3=O)c2c1	HT	cell growth	120 h		EC50	> 30000 nM
Cc1cc(Nc2ncc(Cl)c(Nc3ccccc3S(=O)(=O)C(C)C)n2)c(OC(C)C)cc1C1CCNCC1	CLB-GE	phosphoproteomics LC-MS/MS, item: TNKS1BP1 phosphorylation	200 nM, 60 min	reference: untreated	log2 fold change	-2.45
CCCc1cc(=O)nc(SCCCC(=O)Nc2ccc(OC(F)F)cc2)[nH]1	cells, COS-1, expressing proMMP-9	cell migration, 2D collagen dot migration	50 µM, 18 h		inhibition	63 ± 4%
CCn1cc(-c2cc(Cn3ccoc3=N)cc3c2CCN([C@@H](C)c2cc(OC)ccn2)C3=O)c(C(F)(F)F)n1	SK-BR-3	cell growth, inhibitor	120 h		EC50	613 nM
CC(C)C[C@@H](/C=C/S(C)(=O)=O)NC(=O)[C@H](CC(C)C)NC(=O)[C@H](CC(C)C)NC(=O)OCc1ccccc1	C127 LDR GFP reporter cells	silenced GFP reporter induction, activator, high-content imaging	retest, two-run mean		efficacy	81%
O=c1[nH]c(=O)c2cc(S(=O)(=O)Nc3ccc(N4CCCCCC4)cc3)ccc2[nH]1	adult rat ventricular myocytes		10 µM	reference: basal	relaxation velocity	123%
COc1ccc(OC)c(Nc2nc3nonc3nc2N2CCCC(C)C2)c1 (stereo not shown)	C127 LDR GFP reporter cells	silenced GFP reporter induction, activator, high-content imaging	retest, two-run mean		efficacy	31%
CCn1cc(-c2cc(Cn3ccnc3)cc3c2CCN([C@H](c2cc(OC)ccn2)C2CC2)C3=O)c(C(F)(F)F)n1	PECAPJ15	cell growth	120 h		EC50	1.25 nM
Cc1cccc(-c2[nH]c(CNc3ccccc3F)nc2-c2ccc3ncnn3c2)n1	RPMI-8226	flow cytometry, item: CD267	concentration not given	reference: comparator compound alone	surface marker level	185%
CC(C)S(=O)(=O)c1ccc2nccc(Nc3ccc4scnc4c3)c2c1	3T3-SA		concentration not given		time to cleaved caspase-3 accumulation	≤ 1.5 h post treatment
CCCCc1nc(Cl)c(CO)n1Cc1ccc(-c2ccccc2-c2nn[nH]n2)cc1	human PBMC	RNA-seq, item: CD1D mRNA	10 µg/mL, 24 h	reference: untreated control	log2 fold change	-1.6
CC(C)(O)c1coc(S(=O)(=O)NC(=O)Nc2c3c(cc4c2CCC4)CCC3)c1	THP-1 cells, LPS-primed	pyroptosis, LDH release	25 µM, LPS 1 µg/mL, 4 h, added: nigericin 5 µM, 2 h		cell lysis	24.4%

SMILES	cell line	test	conditions	scale	quantity	value
CC(C)NCC(O)c1ccc(O)c(O)c1 (stereo not shown)	mouse ventricular cardiomyocytes		dose not given, 0.239 s		sarcomere length	1.8 µm
COc1ccc2[nH]c([S+]([O-])Cc3ncc(C)c(OC)c3C)nc2n1 (stereo not shown)	human iPSC-derived cardiomyocytes	MyBP-C/MYH ratio, plate-normalised SD score	concentration not given, primary screen	direction not given	activity score	-5.4
Cc1ccc(NC(=O)c2c(C)nc3sc(C(=O)NC4CCCC4)c(N)c3c2-c2ccco2)c(C)c1	C127 LDR GFP reporter cells	silenced GFP reporter induction, activator, high-content imaging	retest, two-run mean		efficacy	50%
CCCCc1oc2ccc(NS(C)(=O)=O)cc2c1C(=O)c1ccc(OCCCN(CCCC)CCCC)cc1	human embryonic stem cell aggregates	mRNA level, microarray, item: PAX3	0.5 µM, 120 h	reference: untreated, down-regulated	fold change	2.1 fold
COc1ccc(-n2nc(C(C)=O)s/c2=N\N=C(/C)c2ccc(NC(=O)c3ccc(Cl)cc3)cc2)cc1	MCF7		0.156 µM		viability	48.3%
Cn1cc(-c2ccc(-c3cncc(Cl)c3N3CCC4(CCNC4=O)CC3)cc2)cn1	COLO 205	gene expression, microarray, item: ARHGEF39 mRNA	concentration not given, 6 h	reference: untreated cells	log2 fold change	-2.26
C1CCC(C(CC2CCCCN2)C2CCCCC2)CC1 (stereo not shown)	MYBPC3 iPSC cardiomyocytes	plate-normalised	concentration not given, 24 h, hit retest		MyBP-C level	2.2%
CN(C)CCCOc1cc(NC(=O)c2cc(Cl)cc(C(=O)Nc3cc(OCCCN(C)C)c4ccccc4n3)n2)nc2ccccc12	U2OS	cell viability, CellTiter-Glo	72 h	reference: IC50 U2OS over WI-38	selectivity ratio	2
O=C1CCC(N2C(=O)c3ccccc3C2=O)C(=O)N1 (stereo not shown)	human iPSC-derived cardiomyocytes	MyBP-C/MYH ratio, plate-normalised SD score	concentration not given, primary screen	direction not given	activity score	4.9
C=CC1=C(C)c2cc3[n-]c(cc4nc(cc5[n-]c(cc1n2)c(C)c5C=C)C(C)=C4CCC(=O)O)c(CCC(=O)O)c3C.[Zn+2]	SH-SY5Y	RNA-seq, item: TRAF1 mRNA	5 µM, 5 h	reference: untreated cells	fold change	3.55
N#CCC(=O)NN	human iPSC-derived cardiomyocytes	MyBP-C/MYH ratio, plate-normalised SD score	concentration not given, primary screen	direction not given	activity score	3.8
Cn1cc(Nc2nccc(-c3ccc4c(c3)CN(C3COC3)CC[C@H]4NC(=O)c3cn(C(C)(C)C)nn3)n2)cn1	human B cells		100 nM, 64 h, stimulation-downregulated genes, added: CpG ODN2006		number of unchanged genes	54
O=C(O)[C@@H]1CCC(O)=N1	human iPSC-derived cardiomyocytes	MyBP-C/MYH ratio, plate-normalised SD score	concentration not given, primary screen	direction not given	activity score	3.2
O=C(C[C@@H](C(F)F)n1ccc(F)n1)N1CCC(O)(Cn2cnc3c(cnn3-c3ccc(F)cc3)c2=O)CC1	CHP-212 parental	PI flow cytometry	0.3 µM, 24 h		S phase cells	17.2%
CC/C=C\C/C=C\C/C=C\C/C=C\C/C=C\C/C=C\CCC(=O)O	human iPSC-derived cardiomyocytes	MyBP-C/MYH ratio, plate-normalised SD score	concentration not given, primary screen	direction not given	activity score	3.5
CC[C@H](C)N(CC(=O)N(CC(=O)N(CC(=O)N(CC(=O)N(CC(=O)N(CC(=O)N(CC(N)=O)[C@@H](C)c1ccccc1)[C@@H](C)c1ccccc1)[C@@H](C)CC)[C@@H](C)c1ccccc1)[C@@H](C)c1ccccc1)[C@@H](C)CC)C(=O)CNCCCCN	THP-1 macrophages	ELISA	10 µM, 72 h, added: LPS 2 ng/mL		IL-6 release	decreased
CC(N)C12CC3CC(CC(C3)C1)C2 (stereo not shown)	human iPSC-derived cardiomyocytes	MyBP-C/MYH ratio, plate-normalised SD score	concentration not given, primary screen	direction not given	activity score	-4.5
O=C(/C=C/C=C/C=C/C1CCCCC1)NC1=C[C@@](O)(/C=C/C=C/C=C/C(=O)NC2=C(O)CCC2=O)[C@@H]2O[C@@H]2C1=O	TE-10	cell growth, CellTiter-Glo	78 h		GI50	20200 nM

A few entries again:
SMILES	cell line	test	conditions	scale	quantity	value
Cc1cccc(-c2[nH]c(CNc3ccccc3F)nc2-c2ccc3ncnn3c2)n1	RPMI-8226	flow cytometry, item: CD267	concentration not given	reference: comparator compound alone	surface marker level	185%
CC[C@H](C)N(CC(=O)N(CC(=O)N(CC(=O)N(CC(=O)N(CC(=O)N(CC(=O)N(CC(N)=O)[C@@H](C)c1ccccc1)[C@@H](C)c1ccccc1)[C@@H](C)CC)[C@@H](C)c1ccccc1)[C@@H](C)c1ccccc1)[C@@H](C)CC)C(=O)CNCCCCN	THP-1 macrophages	ELISA	10 µM, 72 h, added: LPS 2 ng/mL		IL-6 release	decreased
O=C1CCC(N2C(=O)c3ccccc3C2=O)C(=O)N1 (stereo not shown)	human iPSC-derived cardiomyocytes	MyBP-C/MYH ratio, plate-normalised SD score	concentration not given, primary screen	direction not given	activity score	4.9
